# Experimental data collected from several papers.
# Compare with care: the assays were run in different laboratories. Numbers after ± are the reported error.
# TDP1: Tyrosyl-DNA phosphodiesterase 1 (TDP1, Homo sapiens, UniProt Q9NUW8)
# Chain of UniProt Q9NUW8 (whole entry, looked up): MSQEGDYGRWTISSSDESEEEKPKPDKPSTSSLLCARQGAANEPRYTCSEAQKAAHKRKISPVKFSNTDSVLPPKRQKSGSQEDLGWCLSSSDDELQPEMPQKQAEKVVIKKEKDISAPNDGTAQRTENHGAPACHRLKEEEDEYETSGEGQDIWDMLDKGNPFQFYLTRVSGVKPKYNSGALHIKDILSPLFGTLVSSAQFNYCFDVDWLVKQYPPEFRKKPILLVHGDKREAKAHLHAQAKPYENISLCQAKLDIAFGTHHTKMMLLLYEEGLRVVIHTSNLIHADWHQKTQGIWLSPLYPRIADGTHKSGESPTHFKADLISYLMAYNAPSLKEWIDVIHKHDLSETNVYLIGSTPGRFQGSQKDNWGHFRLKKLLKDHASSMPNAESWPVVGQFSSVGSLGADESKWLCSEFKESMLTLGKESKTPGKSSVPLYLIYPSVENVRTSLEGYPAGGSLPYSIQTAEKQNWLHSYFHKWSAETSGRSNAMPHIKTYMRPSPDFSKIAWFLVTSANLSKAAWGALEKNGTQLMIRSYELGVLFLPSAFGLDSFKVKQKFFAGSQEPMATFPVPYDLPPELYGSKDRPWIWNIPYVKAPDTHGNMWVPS
# Uncharacterized protein: Uncharacterized protein (Trypanosoma brucei brucei, UniProt Q386Q8)
# ppa: Inorganic pyrophosphatase (ppa, Escherichia coli, UniProt P0A7A9)
# Chain of UniProt P0A7A9 (whole entry, looked up): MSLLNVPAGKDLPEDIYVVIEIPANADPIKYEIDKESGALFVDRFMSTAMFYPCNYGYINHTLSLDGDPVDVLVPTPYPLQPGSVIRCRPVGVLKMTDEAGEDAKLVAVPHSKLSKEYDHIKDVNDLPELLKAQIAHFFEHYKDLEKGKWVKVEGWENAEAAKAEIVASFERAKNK
# OfChi-h: Chitinase (OfChi-h, Ostrinia furnacalis, UniProt Q4AE59)
# Chain of UniProt P29371 (whole entry, looked up): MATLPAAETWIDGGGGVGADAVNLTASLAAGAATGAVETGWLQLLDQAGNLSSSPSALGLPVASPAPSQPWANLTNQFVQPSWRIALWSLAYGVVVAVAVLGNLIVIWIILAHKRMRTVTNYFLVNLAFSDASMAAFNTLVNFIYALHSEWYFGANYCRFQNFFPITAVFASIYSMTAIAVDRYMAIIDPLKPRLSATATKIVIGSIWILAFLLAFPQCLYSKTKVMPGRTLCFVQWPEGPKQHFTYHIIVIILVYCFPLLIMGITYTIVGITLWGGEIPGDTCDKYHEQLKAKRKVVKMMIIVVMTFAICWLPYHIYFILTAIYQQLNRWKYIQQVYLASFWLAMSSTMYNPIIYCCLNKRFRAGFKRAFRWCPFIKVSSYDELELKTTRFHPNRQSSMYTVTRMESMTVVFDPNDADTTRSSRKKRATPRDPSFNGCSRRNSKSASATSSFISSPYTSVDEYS
# Chain of UniProt Q5U3Y7 (whole entry, looked up): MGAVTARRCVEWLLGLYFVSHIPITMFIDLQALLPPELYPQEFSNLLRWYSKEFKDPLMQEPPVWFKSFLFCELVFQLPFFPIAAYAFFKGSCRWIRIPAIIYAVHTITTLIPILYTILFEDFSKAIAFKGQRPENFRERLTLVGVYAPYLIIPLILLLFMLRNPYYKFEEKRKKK
# Chain of UniProt Q460N3 (whole entry, looked up): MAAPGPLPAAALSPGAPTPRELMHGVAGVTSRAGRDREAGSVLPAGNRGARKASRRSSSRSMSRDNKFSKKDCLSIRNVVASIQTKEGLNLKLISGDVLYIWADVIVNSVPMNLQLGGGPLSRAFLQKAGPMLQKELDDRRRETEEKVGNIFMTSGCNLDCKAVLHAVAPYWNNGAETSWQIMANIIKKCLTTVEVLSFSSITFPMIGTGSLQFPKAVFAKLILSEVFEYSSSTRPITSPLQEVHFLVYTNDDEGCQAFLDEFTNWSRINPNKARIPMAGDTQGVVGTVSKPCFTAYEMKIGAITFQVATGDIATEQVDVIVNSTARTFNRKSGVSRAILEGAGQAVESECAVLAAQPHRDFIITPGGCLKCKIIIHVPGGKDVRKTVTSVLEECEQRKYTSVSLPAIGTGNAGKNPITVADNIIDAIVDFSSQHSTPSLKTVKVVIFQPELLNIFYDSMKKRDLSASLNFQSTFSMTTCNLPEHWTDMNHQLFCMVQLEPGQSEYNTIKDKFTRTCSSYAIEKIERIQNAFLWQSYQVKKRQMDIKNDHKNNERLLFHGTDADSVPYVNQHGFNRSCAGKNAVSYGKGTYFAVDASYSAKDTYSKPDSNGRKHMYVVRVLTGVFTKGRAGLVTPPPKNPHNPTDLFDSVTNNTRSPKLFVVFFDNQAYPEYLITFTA
# Chain of UniProt P43140 (whole entry, looked up): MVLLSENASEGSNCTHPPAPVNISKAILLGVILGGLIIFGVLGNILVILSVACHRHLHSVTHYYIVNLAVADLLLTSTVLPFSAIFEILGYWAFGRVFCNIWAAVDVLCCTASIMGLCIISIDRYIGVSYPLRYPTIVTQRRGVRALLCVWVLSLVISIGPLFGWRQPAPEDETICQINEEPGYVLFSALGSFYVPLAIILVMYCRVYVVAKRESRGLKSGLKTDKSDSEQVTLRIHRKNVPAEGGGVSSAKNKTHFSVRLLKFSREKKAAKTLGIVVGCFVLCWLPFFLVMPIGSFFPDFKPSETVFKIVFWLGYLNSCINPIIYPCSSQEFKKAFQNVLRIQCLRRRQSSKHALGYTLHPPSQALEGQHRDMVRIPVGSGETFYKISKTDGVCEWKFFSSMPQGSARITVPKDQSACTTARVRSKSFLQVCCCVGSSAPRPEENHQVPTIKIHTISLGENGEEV
# Chain of UniProt Q13936 (whole entry, looked up): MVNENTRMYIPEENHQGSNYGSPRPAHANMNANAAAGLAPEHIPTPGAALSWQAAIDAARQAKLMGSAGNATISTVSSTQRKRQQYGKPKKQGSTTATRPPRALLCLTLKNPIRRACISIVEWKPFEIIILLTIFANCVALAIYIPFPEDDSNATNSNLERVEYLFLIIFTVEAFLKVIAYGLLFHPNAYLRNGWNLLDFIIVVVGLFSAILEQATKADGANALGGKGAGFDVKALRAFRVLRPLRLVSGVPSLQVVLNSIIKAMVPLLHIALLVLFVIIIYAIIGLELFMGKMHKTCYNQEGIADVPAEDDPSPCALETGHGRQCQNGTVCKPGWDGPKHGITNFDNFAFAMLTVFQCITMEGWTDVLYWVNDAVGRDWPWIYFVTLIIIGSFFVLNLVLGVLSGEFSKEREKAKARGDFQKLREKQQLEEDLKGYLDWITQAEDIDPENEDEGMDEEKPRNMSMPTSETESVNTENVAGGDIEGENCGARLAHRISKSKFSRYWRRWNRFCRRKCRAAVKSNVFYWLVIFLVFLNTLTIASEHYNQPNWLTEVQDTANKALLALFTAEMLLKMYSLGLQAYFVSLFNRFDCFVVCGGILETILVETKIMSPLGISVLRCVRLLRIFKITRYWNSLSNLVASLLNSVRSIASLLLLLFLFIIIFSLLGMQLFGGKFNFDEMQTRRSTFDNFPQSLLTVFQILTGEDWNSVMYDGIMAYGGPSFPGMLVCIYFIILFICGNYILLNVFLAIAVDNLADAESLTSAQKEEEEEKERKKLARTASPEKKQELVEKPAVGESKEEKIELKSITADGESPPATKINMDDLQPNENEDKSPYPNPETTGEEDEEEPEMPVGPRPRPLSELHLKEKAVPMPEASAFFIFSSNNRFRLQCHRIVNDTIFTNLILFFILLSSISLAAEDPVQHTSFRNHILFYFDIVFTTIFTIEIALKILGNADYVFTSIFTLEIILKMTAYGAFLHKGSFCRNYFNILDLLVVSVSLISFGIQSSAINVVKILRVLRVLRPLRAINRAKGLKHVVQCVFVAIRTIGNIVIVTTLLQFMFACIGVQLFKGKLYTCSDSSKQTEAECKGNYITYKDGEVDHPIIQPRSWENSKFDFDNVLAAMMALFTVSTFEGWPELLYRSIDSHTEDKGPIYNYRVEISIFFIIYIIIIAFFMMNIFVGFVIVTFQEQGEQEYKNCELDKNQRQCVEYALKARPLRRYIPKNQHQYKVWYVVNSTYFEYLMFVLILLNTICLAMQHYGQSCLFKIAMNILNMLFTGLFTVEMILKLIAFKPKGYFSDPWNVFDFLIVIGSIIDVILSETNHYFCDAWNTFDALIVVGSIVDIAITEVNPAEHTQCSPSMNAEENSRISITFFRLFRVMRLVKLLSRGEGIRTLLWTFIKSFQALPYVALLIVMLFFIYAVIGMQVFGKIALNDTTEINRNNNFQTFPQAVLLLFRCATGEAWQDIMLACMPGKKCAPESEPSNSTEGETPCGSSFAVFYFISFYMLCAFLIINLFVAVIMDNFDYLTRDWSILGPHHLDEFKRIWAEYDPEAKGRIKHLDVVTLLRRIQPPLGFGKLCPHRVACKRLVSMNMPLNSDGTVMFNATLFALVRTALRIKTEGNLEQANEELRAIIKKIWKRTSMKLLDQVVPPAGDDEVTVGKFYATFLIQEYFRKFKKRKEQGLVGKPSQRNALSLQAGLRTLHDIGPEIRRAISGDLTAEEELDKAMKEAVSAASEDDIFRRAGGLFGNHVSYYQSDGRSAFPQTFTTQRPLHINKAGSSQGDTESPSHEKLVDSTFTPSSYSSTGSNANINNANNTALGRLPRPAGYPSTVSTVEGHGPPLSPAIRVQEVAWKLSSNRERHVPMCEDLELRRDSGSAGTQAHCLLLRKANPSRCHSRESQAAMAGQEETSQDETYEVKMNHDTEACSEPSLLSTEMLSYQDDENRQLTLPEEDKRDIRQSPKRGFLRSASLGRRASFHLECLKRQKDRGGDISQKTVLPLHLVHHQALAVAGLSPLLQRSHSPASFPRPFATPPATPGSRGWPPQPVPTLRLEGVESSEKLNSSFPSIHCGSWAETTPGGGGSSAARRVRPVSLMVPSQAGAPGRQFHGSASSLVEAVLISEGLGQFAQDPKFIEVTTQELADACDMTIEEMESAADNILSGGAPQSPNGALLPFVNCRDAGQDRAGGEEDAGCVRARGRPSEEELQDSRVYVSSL
# Chain of UniProt O75365 (whole entry, unmodified, looked up): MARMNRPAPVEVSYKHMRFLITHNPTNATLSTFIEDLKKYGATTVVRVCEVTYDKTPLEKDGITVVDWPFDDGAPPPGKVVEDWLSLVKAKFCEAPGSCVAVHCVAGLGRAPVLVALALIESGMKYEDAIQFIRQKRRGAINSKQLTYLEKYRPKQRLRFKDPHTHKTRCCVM
SMILES,target or system,assay,system,conditions,scale,quantity,value
Cc1[nH]nc2c1N=C(c1ccccc1Cl)c1cnc(N3CCOCC3)cc1N2,"EDNRB (Homo sapiens, UniProt P24530)",cell-free assay,,10 µM,,inhibition,2%
"CC(=O)C12NC(C)(C)CC1(C)C(=O)C1=C2c2c(c3c4n2C(C)(C)CC2=C4C4(CC(C)(C)NC(C)(C4)C2=O)CC3(C)C)C(=O)C(C)(C)N1 (single isomer, unassigned; (+))","CACNA1G (Homo sapiens, UniProt O43497)","calcium current, antagonist, whole-cell patch clamp",HEK293T cells,10 µM,,inhibition,4.86 ± 0.12%
O=C1c2sc(-c3ccc(N4CCC(F)C4)nc3F)nc2CCN1c1cccnc1 (centres unmarked),"RARA (Homo sapiens, UniProt P10276)","ligand displacement, radioligand",,1 µM,,inhibition,-3%
O=C(O)c1ccc(Nc2c(-c3ccc(CON=Cc4ccc(-n5ccnc5)cc4)cc3)nc3cc(-c4ccccc4)ccn23)cc1,TDP1,"enzyme activity, inhibitor",,"100 µM, unpurified compound",,inhibition,77.5%
CC(C)Cn1c(SCC(=O)N2CCc3ccccc3C2)nc2cc(Cl)ccc2c1=O,"ADRB3 (Homo sapiens, UniProt P13945)","ligand displacement, radioligand",,10 µM,,inhibition,29%
CCNc1sc(C(C)=O)c(N)c1C#N,Uncharacterized protein,"enzyme activity, inhibitor, coupled colorimetric",,"30 µM, with: E. coli pyrophosphatase coupling",,inhibition,36.2%
COc1cc(C=NOCc2ccc(-c3nc4cc(-c5ccccc5)ccn4c3Nc3ccc(C(=O)O)cc3)cc2)cc(I)c1OC(C)=O,TDP1,"enzyme activity, inhibitor",,"100 µM, unpurified compound",,inhibition,68.5%
COc1cc(NC(=O)N2CCSc3ccccc32)cc(OC)c1,ppa,enzyme activity,,30 µM,,inhibition,-4.4%
C=C(NC(=O)c1csc(-c2nc3c(cc2O)-c2nc(cs2)C(=O)NC(C(C)O)C(=O)NC(=C(C)OC)c2nc(cs2)C(=O)NC2c4nc(cs4)C(=O)NC(COC(=O)c4c5c6c(cccc6n4O)COC(=O)C(OC4CC(C)(O)C(N(C)C)C(C)O4)C2OC5)c2nc-3cs2)n1)C(N)=O (centres unmarked),,metabolic stability,"monkey, liver microsomes",2 µM,,scaled CLint,14.7 mL/min/kg
COc1cc(-n2cc3cc(F)cc(C(N)=O)c3n2)cc(Cl)c1C1CC(O)(CCO)Cc2ccccc21 (centres unmarked),"PARP15 (Homo sapiens, UniProt Q460N3)","enzyme activity, inhibitor",,10 µM,,inhibition,0.81%
COc1ncc2nc(C)n(Cc3ncc(S(N)(=O)=O)cc3F)c2c1-c1ccccc1,"CACNA1C (Homo sapiens, UniProt Q13936)","antagonist, cell-based",,10 µM,,inhibition,2.78%
O=C(O)c1ccc(Nc2c(-c3ccccc3)nc3ccc(CON=Cc4cc(Cl)ccc4OCc4cccnc4)cn23)cc1,TDP1,"enzyme activity, inhibitor",,"100 µM, unpurified compound",,inhibition,11.9%
Brc1ccccc1-c1nnc(CSc2nnnn2-c2ccccc2)o1,sigma receptor 1,radioligand binding,,10 µM,,inhibition,8%
CC(C)(C)OC(=O)C[N+](C)(C)CCCN1c2ccccc2CCc2ccc(Cl)cc21,ppa,"inhibitor, counter-screen, coupling enzyme alone",,30 µM,,inhibition,42%
COc1ccc(C2NCCc3cc(O)c(O)cc32)cc1 (centres unmarked),tyrosinase,"enzyme activity, inhibitor",,"100 µM, with: levodopa",,inhibition,4.63 ± 2.45%
O=C(Nc1cccc(C(F)(F)F)c1)c1ccc(CSc2nnnn2-c2ccccc2)cc1,"KCNT1 (Homo sapiens, UniProt Q5JUK3)","ion current, inhibitor, patch clamp",HEK293,10 µM,,inhibition,> 40%
Cc1nc2c(F)cc(-c3nc(Nc4ccc(CNC(=O)CCCCCCC(=O)NO)cc4)ncc3F)cc2n1C(C)C,"Phosphatidylinositol 4,5-bisphosphate 3-kinase catalytic subunit alpha isoform, with p85 alpha (Pik3ca, Mus musculus, UniProt P42337, E542K)",enzyme activity,,"1 µM, p110α(E542K)/p85α)(m mouse",,inhibition,32%
COCC(=O)N1CCc2cc(-c3csc(NC(=O)c4cc(OC)cc(OC)c4)n3)ccc21,"Adra1a (Rattus norvegicus, UniProt P43140)","ligand displacement, radioligand",,10 µM,,inhibition,3%
COc1ccc(S(=O)(=O)N2CCc3ccccc3C2)cc1N1CCN(C(=O)c2ccc(F)cc2C(F)(F)F)CC1,"TACR3 (Homo sapiens, UniProt P29371)","ligand displacement, radioligand",,1 µM,,inhibition,1.5%
CN(C)c1nc(NCc2c(F)cccc2C(F)(F)F)c(/N=N/c2ccc(Cl)cc2)c(N(C)C)n1,OfChi-h,"enzyme activity, inhibitor, fluorescence",,1 µM,,inhibition,87.9%
C=C1CC[C@H](OCCCNC(=O)CCOCCOCCOCCOCCOCCOCCOCCOCCOCCOCCOCCOCCOCCOCCOCCOCCOCCOCCOCCOCCOCCOCCOCCOCCOCCOCCOCCOCCOCCOCCOCCOCCOCCOCCOCCOCCNC(=O)CCN2C(=O)CC(SC[C@H](NC(=O)[C@H](Cc3ccccc3)NC(=O)[C@H](CC(N)=O)NC(=O)[C@H](Cc3c[nH]cn3)NC(=O)[C@@H](NC(=O)[C@H](CC(=O)O)NC(=O)[C@H](CCC(N)=O)NC(=O)[C@H](CC(C)C)NC(=O)[C@H](CCCCN)NC(=O)[C@H](CCCCN)NC(=O)[C@H](CCCNC(=N)N)NC(=O)[C@H](CC(C)C)NC(=O)[C@H](Cc3c[nH]c4ccccc34)NC(=O)[C@H](CCC(=O)O)NC(=O)[C@@H](NC(=O)[C@H](CCCNC(=N)N)NC(=O)[C@H](CCC(=O)O)NC(=O)[C@H](CCSC)NC(=O)[C@H](CO)NC(=O)[C@H](CC(N)=O)NC(=O)[C@H](CC(C)C)NC(=O)[C@H](Cc3c[nH]cn3)NC(=O)[C@H](CCCCN)NC(=O)CNC(=O)[C@H](CC(C)C)NC(=O)[C@H](CC(N)=O)NC(=O)[C@H](Cc3c[nH]cn3)NC(=O)[C@H](CCSC)NC(=O)[C@H](CC(C)C)NC(=O)[C@H](CCC(N)=O)NC(=O)[C@@H](NC(=O)[C@H](CCC(=O)O)NC(=O)[C@H](CO)NC(=O)[C@@H](NC(=O)[C@@H](N)CO)C(C)C)[C@@H](C)CC)C(C)C)C(C)C)C(=O)O)C2=O)C/C1=C/C=C1\CCC[C@]2(C)[C@@H]([C@H](C)CCCC(C)(C)O)CC[C@@H]12 (some centres unmarked),,,"male Sprague-Dawley rat, plasma","subcutaneous, 30 µg/kg, single dose",,clearance,0.402 mL/min/kg
CN1CC[C@@H](COc2cnc(C#N)cc2-c2ccn3nc(NC(=O)C4CC4)cc3c2)C1,"TSSK4 (Homo sapiens, UniProt Q6SA08)","enzyme activity, inhibitor",,1 µM,,inhibition,9%
Cc1ncsc1-c1ccc(C(C)NC(=O)C2CC(O)CN2C(=O)C(NC(=O)CCCCCCCCCCN2CCCC(Nc3ncc(Cl)c(Nc4ccccc4S(=O)(=O)C(C)C)n3)C2)C(C)(C)C)cc1 (centres unmarked),22Rv1,"RNA-seq, refers to: ZNF671 mRNA",,concentration not given,reference: DMSO,log2 fold change,-1.79
CNS(=O)(=O)Nc1nccc(Cc2c(C)c3ccc(Oc4ncccc4F)cc3oc2=O)c1F,RMUGS,"cell viability, CellTiter-Glo",,7 days,,IC50,99 nM
Cc1nn(-c2cccc(N)c2)c(=O)c2cnc(Nc3ccc(N4CCNCC4)cc3)nc12,"Aurora kinase C (AURKC, Homo sapiens, UniProt Q9UQB9)","enzyme activity, inhibitor",,,,IC50,3420 nM
C/C=C/C(=O)Nc1ccc2nc(NCCCCCN(C)C)nc(NCCCCCCN(C)C)c2c1,"EHMT1 (Homo sapiens, UniProt Q9H9B1)","enzyme activity, inhibitor, radiometric",,50 µM,,inhibition,53%
Nc1ncc(-c2cc(-c3cnn(CC(F)(F)F)c3)ncc2F)nc1C(=O)NC1CNCC(F)C1 (centres unmarked),WNK1,KINOMEscan,,1 µM,reference: DMSO control,remaining binding,70%
COc1ccc(C#CC2=C[C@H]3C[C@@]4(OC(=O)C=C24)[C@H]2CC[C@H](C(OC)OC)N32)cc1,"PDE4D (Homo sapiens, UniProt Q08499)","enzyme activity, inhibitor",,10 µM,,inhibition,16%
CC1=NN(c2ccccc2F)C(=O)/C1=N\Nc1ccc(S(N)(=O)=O)cc1,bovine α-glucosidase,"enzyme activity, inhibitor, glucose oxidase",,"50 µg/mL, with: maltose",,inhibition,34.9%
CN(C)c1cc(N)c2cc(Cl)ccc2n1,ppa,"inhibitor, counter-screen, coupling enzyme alone",,30 µM,,inhibition,38.9%
CN(C)c1nc(NCc2cc(Cl)c(F)cc2F)c(/N=N/c2ccc(Cl)cc2)c(N(C)C)n1,OfChi-h,"enzyme activity, inhibitor, fluorescence",,1 µM,,inhibition,91.3%
Cn1c(-c2ccc(C=NOCc3ccc(-c4nc5cc(-c6ccccc6)ccn5c4Nc4ccc(C(=O)O)cc4)cc3)s2)nc2ccccc21,TDP1,"enzyme activity, inhibitor",,"100 µM, unpurified oxime",,inhibition,96.9%
Cc1c(C)c(C)c(C[N+]2(C)CCN(CCCN3c4ccccc4Sc4ccc(Cl)cc43)CC2)c(C)c1C,ppa,"inhibitor, counter-screen, coupling enzyme alone",,30 µM,,inhibition,51.7%
C=CC(=O)Nc1cccc(Cn2ncc3cnc(Nc4cnn(CCOC)c4)nc32)c1,STK35 human,"binding, KINOMEscan",,100 nM,lower = stronger binding,percent of control,100%
CC(=O)NC1C(=O)N(c2ccccc2)N=C1C (centres unmarked),ppa,"inhibitor, counter-screen, coupling enzyme alone",,30 µM,,inhibition,46.1%
COC1CN([C@H]2CC[C@H]([C@@]3(C)Oc4c(Cl)cc(C(=O)NCc5c(SC)cc(C)[nH]c5=O)c(C)c4O3)CC2)C1,,"RNA-seq, refers to: CBS mouse homolog","mouse, HT-1376 xenograft, whole blood",dose not given,reference: vehicle,log2 fold change,0.482
Cn1c(/C=C/c2cn(C)c3ccccc23)nc2ccccc2c1=O,Uncharacterized protein,"enzyme activity, inhibitor, coupled colorimetric",,"30 µM, with: E. coli pyrophosphatase coupling",,inhibition,26.3%
O=C(O)c1ccc(Nc2c(-c3ccccc3)nc3ccc(CON=Cc4cccn4Cc4cnc(Cl)s4)cn23)cc1 (mixture of isomers),TDP1,"enzyme activity, inhibitor",,"100 µM, unpurified compound",,inhibition,13.9%
NC(=O)c1cc[n+](CC2=C(C(=O)O)N3C(=O)C(NC(=O)C(c4ccccc4)S(=O)(=O)[O-])C3SC2)cc1 (centres unmarked),"Protein tyrosine phosphatase type IVA 3, with CNNM4 CBS domain (PTP4A3, Homo sapiens, UniProt O75365)","protein-protein interaction, HTRF",,10 µM,,inhibition,94.7 ± 0.4%
CN(Cc1ccc(/C=C/C(=O)NO)cc1)CC12CC3CC(CC(C3)C1)C2,human V1a receptor,agonist radioligand binding,,0.05 µM,,inhibition,-1%
CC1=NN(c2cccc(F)c2)C(=O)/C1=N\Nc1ccc(S(N)(=O)=O)cc1,bovine α-glucosidase,"enzyme activity, inhibitor, glucose oxidase",,"500 µg/mL, with: maltose",,inhibition,40.3%
CO[C@@H](C)c1c(NC(=O)Nc2cnc(-n3nccn3)c(C(F)(F)F)c2)cnc2sc(C)nc12,"Nociceptin receptor (OPRL1, Homo sapiens, UniProt P41146)","ligand displacement, radioligand",,10 µM,,inhibition,8.9%
O=C(O)c1ccc(Nc2c(-c3ccccc3)nc3ccc(CON=Cc4csc5ccccc45)cn23)cc1 (mixture of isomers),TDP1,"enzyme activity, inhibitor",,"100 µM, unpurified compound",,inhibition,0.4%
C[Si](C)(C)C[C@@H](CN)CC(=O)O,"Tmem97 (Rattus norvegicus, UniProt Q5U3Y7)","ligand displacement, radioligand",,75 µM,,inhibition,5%
CN(C)c1nc(NCc2ccccc2)c(/N=N/c2ccc(Cl)cc2)c(N(C)C)n1,OfChi-h,"enzyme activity, inhibitor, fluorescence",,1 µM,,inhibition,70.1%
C=CC(=O)N1Cc2nc(-c3cc(-c4cc(Cl)cnc4Cl)c(F)cc3F)n(-c3ccncn3)c2C1,"PIK3C2A (Homo sapiens, UniProt O00443)","cell-free assay, inhibitor",,1 µM,,inhibition,-4.5%
CC1Cc2ccccc2N1C(=O)CN1CCN(c2ccccc2)CC1 (centres unmarked),"HTR4 (Homo sapiens, UniProt Q13639)",radioligand binding,,concentration not given,,inhibition,0.2%
CC(=O)C1=C(c2ccc(F)cc2)N(C(C)=O)n2cnnc2S1,Uncharacterized protein,"enzyme activity, inhibitor, coupled colorimetric",,"30 µM, with: E. coli pyrophosphatase coupling",,inhibition,38.4%
COc1ccccc1C1NCCc2cc(O)c(O)cc21 (centres unmarked),tyrosinase,"enzyme activity, inhibitor",,"100 µM, with: levodopa",,inhibition,13.2 ± 1.13%
O=C(O)c1ccc(Nc2c(-c3ccccc3)nc3ccc(CON=Cc4ccc(-c5cc(C(F)(F)F)ccn5)cc4)cn23)cc1 (mixture of isomers),TDP1,"enzyme activity, inhibitor",,"100 µM, unpurified compound",,inhibition,32.2%
O=C1c2sc(-c3ccc(N4CCC(CO)CC4)nc3F)nc2CCN1c1cccnc1,"SLC5A7 (Homo sapiens, UniProt Q9GZV3)","ligand displacement, radioligand",,1 µM,,inhibition,5%
O=C(O)c1ccc(Nc2c(-c3ccccc3)nc3ccc(CON=Cc4cc([N+](=O)[O-])cc5c4OCOC5)cn23)cc1,TDP1,"enzyme activity, inhibitor",,"100 µM, unpurified compound",,inhibition,-1.5%
CN1CCCNC(=O)c2cccc(c2)C(=O)NCCCN(C)CCCNc2cccc3c2C(=O)c2cccc(c2C3=O)NCCC1,SAS,"RNA-seq, refers to: MT-ND4L mRNA",,"1 µM, 24 h",reference: untreated cells,log2 fold change,-3.61
